# Literature values, collected from citations in different studies.
# Compare with care: the assays were run in different laboratories.
SMILES,tested on,host,medium,tested at,notes,quantity,result
CC(C)(O/N=C(\C(=O)N[C@@H]1C(=O)N2C(C(=O)[O-])=C(C[n+]3ccccc3)CS[C@H]12)c1csc(N)n1)C(=O)O,,healthy Chinese subjects,,,,fraction excreted in urine,82%
CCC(C)n1ncn(-c2ccc(N3CCN(c4ccc(OCC5COC(Cn6cncn6)(c6ccc(Cl)cc6Cl)O5)cc4)CC3)cc2)c1=O (stereo not drawn),,,oral solution,,fasted,fraction absorbed,1
CC(C)(CO)c1cc2cc(NC(=O)C3(c4ccc5c(c4)OC(F)(F)O5)CC3)c(F)cc2n1C[C@@H](O)CO,,,microsomal incubation,,CYP3A4 Ki,fraction unbound,0.876
CC(C)c1nc(N(C)S(C)(=O)=O)nc(-c2ccc(F)cc2)c1/C=C/[C@@H](O)C[C@@H](O)CC(=O)O,,,plasma,,Simcyp input parameter,fraction unbound in plasma,0.107
CCC(C)n1ncn(-c2ccc(N3CCN(c4ccc(OCC5COC(Cn6cncn6)(c6ccc(Cl)cc6Cl)O5)cc4)CC3)cc2)c1=O (stereo not drawn),,,,,,fraction absorbed,0.59
CN1CCC(COc2cnc(-c3cccc(Cn4nc(-c5cccc(C#N)c5)ccc4=O)c3)nc2)CC1,,,,,,fraction absorbed,~0.85
Cc1nn(C)cc1S(=O)(=O)NC(=O)c1ccc(-n2ccc(OCC(C)(C)C(F)(F)F)n2)nc1N1C[C@@H](C)CC1(C)C,,"pregnant women, first trimester, 1-12 weeks gestation",maternal plasma,,,fraction unbound,0.007
CN(C)C(=O)c1cc2cnc(Nc3ccc(N4CCNCC4)cn3)nc2n1C1CCCC1,,,,,estimated,fraction absorbed,~58.5%
CC[C@@H](C(=O)Nc1ccc(C(N)=O)c(F)c1)n1cc(OC)c(-c2cc(Cl)ccc2-n2cc(C(F)(F)F)nn2)cc1=O,,,feces,concentration not given,,fraction excreted unchanged,28%
CC(O)C(C)n1ncn(-c2ccc(N3CCN(c4ccc(OCC5COC(Cn6cncn6)(c6ccc(Cl)cc6Cl)O5)cc4)CC3)cc2)c1=O (stereo not drawn),,,plasma,,Simcyp input parameter,fraction unbound in plasma,0.016
O=C1Nc2ccc(Cl)cc2[C@@](C#CC2CC2)(C(F)(F)F)O1,,,,,,fraction absorbed,0.67
Nc1cc(C(F)(F)F)c(-c2nc(N3CCOCC3)nc(N3CCOCC3)n2)cn1,SW-620,,,,,GI50,1770 nM

# Repeated from above:
SMILES,tested on,host,medium,tested at,notes,quantity,result
Nc1cc(C(F)(F)F)c(-c2nc(N3CCOCC3)nc(N3CCOCC3)n2)cn1,SW-620,,,,,GI50,1770 nM
